Published values from different studies.
Each line is one published result; not all experiments were run side by side. Values joined by “and” are separate records of one study, mostly repeats; a detail may differ. Numbers after ± are the reported error.
TOP2A: DNA topoisomerase 2-alpha (TOP2A, Homo sapiens, UniProt P11388)
ZBTB11/CRBN: ZBTB11/CRBN (Homo sapiens, UniProt O95625+Q96SW2)
PHO85: Negative regulator of the PHO system (PHO85, Candida albicans, UniProt Q9HGY5)

Structure (SMILES) | target | test | system | setting | how to read | endpoint | value
O=c1nc(SCc2cc(F)cc(C(F)(F)F)c2)nc(SCc2ccc3sccc3c2)[nH]1 | TOP2A | decatenation | – | 125 µM, replicate 1 | – | decatenated DNA | 3.46%
Nc1nc2c(ncn2[C@@H]2O[C@@H]3COP(=O)(O)O[C@H]4[C@@H](O)[C@H](n5cnc6c(=O)[nH]c(N)nc65)O[C@@H]4COP(=O)(O)O[C@H]3[C@H]2O)c(=O)[nH]1 | Cell cycle histidine kinase CckA, CA domain (Caulobacter vibrioides, UniProt Q9X688) | isothermal titration calorimetry | Caulobacter crescentus | concentration not given, 12 °C, added: ADP 5 mM | – | binding enthalpy (ΔH) | 2.2 kcal/mol
COc1cc(Nc2ncc3c(n2)-c2ccc(Cl)cc2C(c2c(F)cccc2OC)=NC3)ccc1C(=O)O | MUSK | kinase activity | – | 1 µM | – | remaining activity | 48%
O=C1CCC(N2C(=O)C=C(Nc3cccc(C4(NCCc5ccc(C(F)(F)F)c(Cl)c5)CCC4)c3)C2=O)C(=O)N1 (centres unmarked) | ZBTB11/CRBN | protein degradation, degrader, HiBiT luminescence | MOLT-4 | – | – | Dmax | 78%
Nc1ncnc2c1ncn2[C@@H]1O[C@H](C[C@@H](N)CC[C@H](N)C(=O)O)[C@@H](O)[C@H]1O | DNA adenine methyltransferase CamA (Clostridioides difficile, UniProt Q183J3) | ITC | – | concentration not given, added: 50 µM DNA | reference: without DNA | cofactor binding increase | ~2
CC(=C/C(=O)O)/C=C/C=C(\C)C1C=C2C(C)(C)CCCC2(C)O1 (centres unmarked) | Rhodopsin (RHO, Homo sapiens, UniProt P08100, E181K) | ER retention, immunostaining co-localization, measured: opsin with calnexin | COS-7 transfected E181K | 1.00 µM | – | Pearson correlation coefficient | 0.71
O=C(COP(=O)(O)O)[C@@H](O)[C@H](O)[C@H](O)COP(=O)(O)O | Retrotransposon-derived protein PEG10 (PEG10, Homo sapiens, UniProt Q86TG7) | thermal proteome profiling, measured: PEG10 | HepG2 cell lysate | concentration not given, 57 over 37 °C, mean | reference: compound over control | thermal stability ratio | 0.671
NC(=O)[C@H]1CCCN1C(=O)CCC(=O)O | Ubiquitin carboxyl-terminal hydrolase 20, ZnF-UBD domain (USP20, Homo sapiens, UniProt Q9Y2K6) | – | – | – | – | Kd | > 1 mM
CN(C)C(=O)C(CCN1CCC(O)(c2ccc(Cl)cc2)CC1)(c1ccccc1)c1ccccc1 | Calcium-activated potassium channel subunit alpha-1, with LRRC26 γ1 subunit (KCNMA1, Homo sapiens, UniProt Q12791) | BK channel conductance, inside-out patch clamp | – | BKα/γ1, Vm 100 mV, nominally Ca2+-free | – | Hill coefficient | 0.77 ± 0.067
Nc1ncnc2c1ncn2[C@@H]1O[C@H](COP(=O)(O)CP(=O)(O)OP(=O)(O)O)[C@@H](O)[C@H]1O | P2X purinoceptor 1 (P2RX1, Homo sapiens, UniProt P51575, E122A) | saturation binding | HEK293 | 130 nM | – | specific binding | 1090 CCPM and 1010 CCPM and 1520 CCPM
Nc1nc2c(ncn2[C@H]2C[C@H](O)[C@@H](CO)O2)c(=O)[nH]1 | deoxyribonucleoside phosphotransferase I (Trichomonas vaginalis) | substrate | – | added: p-nitrophenylphosphate 100 mM | – | Km | 2250 ± 220 µM
O=c1nc(SCc2cc(F)cc(C(F)(F)F)c2)nc(SCc2csc3ccc(Cl)cc23)[nH]1 | TOP2A | DNA relaxation | – | 7.8 µM, replicate 1 | – | relaxed DNA | 56.7%
O=C(O)c1ccc(Nc2ncc3c(n2)-c2ccc(Cl)cc2C(c2c(F)cccc2F)=NC3)cc1 | MAPKAP-K2(h) | kinase activity | – | 1 µM | – | remaining activity | 101%
CC(NC(=O)CCCc1ccc2ccc3cccc4ccc1c2c34)C(=O)NO (centres unmarked) | HDAC8 (Homo sapiens, UniProt Q9BY41) | ITC | Tris-HCl buffer | concentration not given, 298 K | – | binding stoichiometry | 0.9
Cc1cc(-c2ccnc3[nH]cc(F)c23)cc(F)c1[C@@]1(O)[C@H](C)CN(C(=O)CN)C[C@@H]1C | STK38 (Homo sapiens, UniProt Q15208) | ATP probe binding, KiNativ, measured: Lys1 site | HEK293T cell lysate | 0.1 µM | – | inhibition | 5.9%
CC(=O)N[C@H](C(=O)N1C[C@H](O)C[C@H]1C(=O)NCc1ccc(-c2scnc2C)cc1)C(C)(C)SCCCCCCNC(=O)C[C@@H]1N=C(c2ccc(Cl)cc2)c2c(sc(C)c2C)-n2c(C)nnc21 | BRD4/VHL, BD2; with elongins B/C (Homo sapiens, UniProt O60885+P40337, A384K/E383V/K378Q) | ITC | – | 25 °C, BRD4 BD2 mutant, ternary | – | ΔH | -6.2 ± 0.9 kcal/mol
CCN(CC)CCNC(=O)C1CCN(c2ccc3nnc(-c4cccc(C)c4)n3n2)CC1 | CatSper channel complex (Homo sapiens, UniProt Q7RTX7+Q86XQ3+Q8NEC5+Q96P56) | ion current, whole-cell patch clamp | human sperm | 10 µM, at -80 mV | – | inward current density | -1.2 ± 0.4 pA/pF
O=c1cc(-c2ccc([N+](=O)[O-])cc2)[nH]c2c(-c3ccc(Cl)cc3)c(Cc3ccccc3)nn12 | PRKAR1A (Homo sapiens, UniProt P10644) | thermal stability, binder, thermal proteome profiling | RD, cell lysate | 50 µM, 0.5% DMSO | reference: DMSO vehicle | melting temperature shift | 4.5 °C
CC[C@@H]1[C@H](F)C(=O)N[C@@H]1COc1nccc2cc(C(N)=O)c(OC)cc12 | CSNK1G2 (Homo sapiens, UniProt P78368) | ATP-site probe binding, ActivX profiling | THP-1 cell lysate | 0.04 mM, Lys2 site | – | inhibition | 27.3%
O=c1ccn([C@@H]2O[C@H](COP(=O)(O)OP(=O)(O)O)[C@@H](O)[C@H]2O)c(=O)[nH]1 | ABO (Homo sapiens, UniProt P16442, G268A/L266G) | methyl-TROSY NMR titration | – | apo enzyme | – | koff | 6.8 ± 0.4 s⁻¹
CCN(CCO)CCCC(C)Nc1ccnc2cc(Cl)ccc12 (centres unmarked) | SCN5A (Homo sapiens, UniProt Q14524) | sodium current | – | 10 µM | – | inactivation V1/2 | -83.8 ± 4.7 mV
O=S(=O)(O)O | GUK1 (Homo sapiens, UniProt Q16774) | enzyme activity, NADH-coupled | – | 1 mM, added: ATP 1000 µM | – | reaction velocity | 0.146 µM/s and 0.125 µM/s and 0.122 µM/s
CCC1(O)CCCN(C(=O)c2ccc(-c3ccc(F)c(NC(=O)CCl)c3)cc2)C1 (centres unmarked) | DNA dC->dU-editing enzyme APOBEC-3B, C-terminal domain (Homo sapiens, UniProt Q9UH17) | covalent modifier, intact protein mass spectrometry, measured: adduct +26104 Da | – | 250 µM, 3 h, 10-fold molar excess | – | protein adduct | 8%
[O-][S+]1CCCCS1 (centres unmarked) | SOD1 (Homo sapiens, UniProt P00441, G94A) | intact protein LC-MS | SOD1 G93A transgenic mice, whole blood | intravenous, 10 mg/kg, 48 h | – | target engagement | 20% and 21.4%

Structure (SMILES) | target | test | system | setting | how to read | endpoint | value
CCC(C)(NCCc1ccc(Cl)c(C(F)(F)F)c1)c1cccc(NC2=CC(=O)N(C3CCC(=O)NC3=O)C2=O)c1 (centres unmarked) | ZBTB11/CRBN | protein degradation, degrader, HiBiT luminescence | MOLT-4 | – | – | Dmax | 71%
Oc1ccccc1-c1n[nH]cc1-c1ccnc2ccccc12 | PHO85 | kinase binding, MIB/MS competition | Candida albicans lysate | 10 µM | reference: DMSO, negative = stronger binding | log2 fold change | 0.5
c1ccc(C(NCc2cccnc2)(c2ccccc2)c2ccccc2)cc1 | KCNQ1 (Homo sapiens, UniProt P51787) | ion current, inhibitor, whole-cell patch clamp | tsA201 | peak current, leak-subtracted | – | Hill coefficient | 0.7
c1ccc(-c2n[nH]cc2-c2ccnc3ccccc23)nc1 | PHO85 | kinase binding, competitor, MIB/MS competition, measured: PHO85 | Candida albicans cell lysate | 100 nM | reference: DMSO | log2 fold change | 1.69
Nc1nc2c(ncn2[C@@H]2O[C@H](COP(=O)(O)O)[C@@H](O)[C@H]2O)c(=O)[nH]1 | GUK1 (Homo sapiens, UniProt Q16774, D103A) | enzyme activity, NADH-coupled | – | 31.25 µM | – | reaction rate | 4.09 s⁻¹ and 4.57 s⁻¹ and 3.3 s⁻¹
CN1CCN(c2cc(-c3ccncc3)c(-c3ccc4ccccc4c3)nn2)CC1 | CCR8 (Homo sapiens, UniProt P51685) | agonist, FLIPR | – | 12.5 µM | – | activation | -4.2%
O=S(=O)(O)C1CCNCC1 | SLC6A6 (Homo sapiens, UniProt P31641, Y138A) | binding, microscale thermophoresis | – | 250 µM, room temperature, added: 50 nM labelled protein | higher = more binding | normalised MST signal | 0.0467
CC(C)CCC[C@@H](C)[C@H]1CC[C@H]2[C@@H]3CC=C4C[C@@H](O)CC[C@]4(C)[C@H]3CC[C@]12C | CYP11A1 (Homo sapiens, UniProt P05108) | substrate binding saturation | – | added: adrenodoxin 40-fold excess | reference: without adrenodoxin | ΔAmax increase | 3 fold
O=C(CCCc1ccccc1)C(=O)NCCc1ccc(Oc2ccc(C(F)(F)F)cn2)cc1 | Dpp4 (Mus musculus, UniProt P28843) | inhibitor | mouse, WAT cytosol proteome | 10 µM | reference: DMSO, lower = stronger inhibition | probe-enriched protein abundance | 17000 a.u. and 16900 a.u. and 17200 a.u.
CSCC[C@H](N)C(=O)Nc1ccc2ccccc2c1 | rat neuron-specific aminopeptidase | substrate | – | MW 110 kDa | – | kcat | 15.4 s⁻¹
Nc1ccc(C(=O)O)cc1 | BEST1, with wild-type BEST1 (Homo sapiens, UniProt O76090, A10T) | whole-cell patch clamp | HEK293 co-expressing WT and A10T mutant | concentration not given, membrane potential 20 mV | – | current density | 5.97 pA/pF and 2.72 pA/pF and 4.63 pA/pF and 10.2 pA/pF and 6.04 pA/pF and 2.28 pA/pF
O=C(O)CCn1cnc2ccccc21 | Ubiquitin carboxyl-terminal hydrolase 49, ZnF-UBD domain (USP49, Homo sapiens, UniProt Q70CQ1) | – | – | – | – | Kd | > 1 mM
[H]/N=C(/N)NCC(=O)O | SLC6A6 (Homo sapiens, UniProt P31641, L306A) | binding, microscale thermophoresis | – | 244 nM, room temperature, added: 50 nM labelled protein | higher = more binding | normalised MST signal | 0.0483
CCN1CCC[C@H]1CNC(=O)c1c(O)c(Cl)cc(Cl)c1OC | Mas-related G-protein coupled receptor member X4 (Homo sapiens, UniProt Q96LA9) | β-arrestin recruitment, TANGO luminescence, measured: MRGPRX4 | – | concentration not given | reference: basal luminescence | log2 fold change | -0.054
O=C(C[C@@H](C(F)F)n1ccc(F)n1)N1CCC(O)(Cn2cnc3c(cnn3-c3ccc(F)cc3)c2=O)CC1 | USP7 (Homo sapiens, UniProt Q93009, V517I) | isothermal titration calorimetry | – | concentration not given, USP7 V517I | – | binding enthalpy | -18.7 ± 0.167 kcal/mol
COc1cccc2c(-c3ccc(C)cc3)cc(C(=O)Nc3ccc(C(=O)O)cc3)nc12 | RARG (Homo sapiens, UniProt P13631) | reporter gene, antagonist | – | up to 3300 nM, added: ATRA 8 nM (EC80) | – | IC50 | inactive
C=CC(=O)N1CCC(COCC(=O)N2CCN(c3nc(-c4cnc(N)nc4C(F)F)nc(N4CCOC[C@@H]4C)n3)CC2)CC1 | Cyclin-dependent kinase 4, with cyclin D3 (CDK4, Homo sapiens, UniProt P11802) | KINOMEscan | – | 1 µM | – | remaining binding | 75%
CCCCc1nnc2c(N)nc3ccccc3n12 | TLR7 (Homo sapiens, UniProt Q9NYK1) | reporter gene, agonist, NF-κB reporter | HEK-Blue TLR7 | – | – | EC50 | inactive
Cc1n[nH]c2ccc(-c3cc(OC[C@@H](N)Cc4ccccc4)cnc3-c3ccoc3)cc12 | PHO85 | kinase binding, competitor, MIB/MS competition, measured: PHO85 | Candida albicans cell lysate | 1 µM | reference: DMSO | log2 fold change | 0.232
CC[C@@H](C)[C@@H](NC(=O)[C@@H](Cc1ccc(O)cc1)NC(=O)[C@H]1CCCN1C(=O)[C@@H](CCCNC(=N)N)NC(=O)[C@H](N)Cc1c[nH]cn1)C(=O)N[C@H](C)C(=O)N[C@H](Cc1c[nH]cn1)C(=O)N[C@H](CCCNC(=N)N)C(=O)N[C@@H](C(=O)N[C@H](Cc1ccc(O)cc1)C(=O)N[C@H](CO)C(=O)N[C@H](Cc1ccccc1)C(N)=O)C(C)C | Transferrin receptor protein 1 (Tfrc, Mus musculus, UniProt Q62351) | flow cytometry | RAW264.7 | 48 h, pH 6, replicate 1, unit not given | reference: 0 h | surface TFRC expression | 0.934
CN1CCC[C@H]1c1cccnc1 | Chrnd/Chrna1/Chrne (Mus musculus, UniProt P02716+P04756+P20782, G173E) | – | – | – | – | kon | 4.71e+07 M⁻¹ s⁻¹
COc1cc(/C=C/c2ccc(O)cc2)cc(OC)c1 | O-methyltransferase (Sorghum bicolor, UniProt A0A1B6PFV1) | isothermal titration calorimetry | – | concentration not given, apo protein | – | ΔH of binding | -6.26 ± 0.221 kcal/mol
COc1cccc2c(Nc3ccc4[nH]c(C(=O)N/N=C/c5ccc(SC)cc5)cc4c3)cc(C)nc12 | NR1D1 (Homo sapiens, UniProt P20393) | reporter gene, Gal4 hybrid reporter | – | 3 µM | reference: vehicle | activation | 0.81 fold
